Assay results gathered from unrelated publications.
Compare with care: the assays were run in different laboratories. Values joined by “and” are separate records of one study, mostly repeats; a detail may differ.
Target: Mu-type opioid receptor (Oprm1, Rattus norvegicus, UniProt P33535)
Chain of UniProt P33535 (whole entry, looked up): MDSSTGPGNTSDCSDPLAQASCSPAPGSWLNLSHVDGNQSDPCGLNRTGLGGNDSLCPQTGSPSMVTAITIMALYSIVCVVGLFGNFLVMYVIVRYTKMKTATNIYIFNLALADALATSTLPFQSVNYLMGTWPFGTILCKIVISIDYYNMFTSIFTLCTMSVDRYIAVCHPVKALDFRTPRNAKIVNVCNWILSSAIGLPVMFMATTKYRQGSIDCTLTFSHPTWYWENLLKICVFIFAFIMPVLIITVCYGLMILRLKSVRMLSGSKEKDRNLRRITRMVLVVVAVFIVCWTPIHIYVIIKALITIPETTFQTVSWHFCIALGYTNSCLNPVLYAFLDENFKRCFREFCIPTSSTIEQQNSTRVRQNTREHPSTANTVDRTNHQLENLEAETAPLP

Oc1cccc(CCN(CCc2ccccc2)CC2CCCC2)c1 — IC50 (β-arrestin recruitment, antagonist): 1800 nM
N=C(N)NCCC[C@@H]1NC(=O)[C@@H](Cc2ccc(O)cc2)NC(=O)[C@@H](CCCCN)NC(=O)[C@@H](Cc2ccccc2)NC1=O — Ki (ligand displacement, radioligand; cell membranes): 1 to 2 nM and 2.3 nM
Cc1cc(O)cc(C)c1C[C@H](N)C(=O)N[C@@H]1C/C=C/CC[C@@H](C(N)=O)NC(=O)[C@H](Cc2ccccc2)NC(=O)[C@H](Cc2ccccc2)NC1=O — Ki (ligand displacement, radioligand; cell membranes): 0.438 nM
Cc1cc(O)cc(C)c1C[C@H](N)C(=O)N[C@H](CCCNC(=N)N)C(=O)N[C@@H](Cc1ccccc1)C(=O)N[C@@H](CCCCN)C(=O)N[C@H]1CCCC[C@@H]1NC(=O)[C@H](Cc1ccccc1)NC(=O)[C@H](CC1CCCCC1)NC[C@@H]1Cc2ccccc2CN1C(=O)[C@@H](N)Cc1ccc(O)cc1 — Ki (ligand displacement, radioligand; cell membranes): 80.3 nM
NC(=O)[C@@H]1CC/C=C/C[C@@H](NC(=O)[C@@H](N)Cc2ccc(O)cc2)C(=O)N[C@@H](Cc2ccccc2)C(=O)N[C@@H](Cc2ccccc2)C(=O)N1 — Ki (ligand displacement, radioligand; cell membranes): 0.332 nM
Cc1cc(O)cc(C)c1C[C@H](N)C(=O)N[C@H](CCCNC(=N)N)C(=O)N[C@@H](Cc1ccccc1)C(=O)N[C@@H](CCCCN)C(=O)NNC(=O)[C@H](Cc1ccccc1)NC(=O)[C@H](CC1CCCCC1)NC[C@@H]1Cc2ccccc2CN1C(=O)[C@@H](N)Cc1ccc(O)cc1 — Ki (ligand displacement, radioligand; cell membranes): 11.2 nM
CC(=O)N[C@@H](Cc1ccc(O)cc1)C(=O)N[C@@H](C(=O)N[C@H](C(=O)N[C@H](Cc1ccccc1)C(N)=O)C(C)C)C(C)C — EC50 (GIRK current, agonist, whole-cell patch clamp; rat locus coeruleus neurons, brain slices): > 10000 nM
Cc1cc(O)cc(C)c1C[C@H](N)C(=O)N[C@@H]1CCCCC[C@@H](C(N)=O)NC(=O)[C@H](Cc2ccccc2)NC(=O)[C@H](Cc2ccccc2)NC1=O — Ki (ligand displacement, radioligand; cell membranes): 1.54 nM
Cc1cc(O)cc(C)c1C[C@H](N)C(=O)N[C@H](CCCNC(=N)N)C(=O)N[C@@H](Cc1ccccc1)C(=O)N[C@@H](CCCCN)C(=O)NCCCCCCNC(=O)[C@H](Cc1ccccc1)NC(=O)[C@H](CC1CCCCC1)NC[C@@H]1Cc2ccccc2CN1C(=O)[C@@H](N)Cc1ccc(O)cc1 — Ki (ligand displacement, radioligand; cell membranes): 18.6 nM

Repeated from above:
NC(=O)[C@@H]1CC/C=C/C[C@@H](NC(=O)[C@@H](N)Cc2ccc(O)cc2)C(=O)N[C@@H](Cc2ccccc2)C(=O)N[C@@H](Cc2ccccc2)C(=O)N1 — Ki (ligand displacement, radioligand; cell membranes): 0.332 nM
